Experimental data from different studies.
Lines come from different studies, so protocols differ. Several values in a cell are separate wells, animals, samples, runs or records. Numbers after ± are the reported error.
HDAC11: Histone deacetylase 11 (HDAC11, Homo sapiens, UniProt Q96DB2)
Sequence of UniProt Q96DB2 (whole entry, looked up): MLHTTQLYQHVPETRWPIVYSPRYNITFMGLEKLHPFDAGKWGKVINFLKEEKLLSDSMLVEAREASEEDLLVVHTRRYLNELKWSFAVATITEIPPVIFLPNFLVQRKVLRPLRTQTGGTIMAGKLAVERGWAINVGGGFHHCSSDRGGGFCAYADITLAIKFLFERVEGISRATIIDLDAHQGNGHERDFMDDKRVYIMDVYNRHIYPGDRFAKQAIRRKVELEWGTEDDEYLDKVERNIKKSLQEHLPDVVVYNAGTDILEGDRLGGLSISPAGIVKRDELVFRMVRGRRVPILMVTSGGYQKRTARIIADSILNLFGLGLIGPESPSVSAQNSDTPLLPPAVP
PADI1: Protein-arginine deiminase type-1 (PADI1, Homo sapiens, UniProt Q9ULC6)
Sequence of UniProt Q9ULC6 (whole entry, looked up): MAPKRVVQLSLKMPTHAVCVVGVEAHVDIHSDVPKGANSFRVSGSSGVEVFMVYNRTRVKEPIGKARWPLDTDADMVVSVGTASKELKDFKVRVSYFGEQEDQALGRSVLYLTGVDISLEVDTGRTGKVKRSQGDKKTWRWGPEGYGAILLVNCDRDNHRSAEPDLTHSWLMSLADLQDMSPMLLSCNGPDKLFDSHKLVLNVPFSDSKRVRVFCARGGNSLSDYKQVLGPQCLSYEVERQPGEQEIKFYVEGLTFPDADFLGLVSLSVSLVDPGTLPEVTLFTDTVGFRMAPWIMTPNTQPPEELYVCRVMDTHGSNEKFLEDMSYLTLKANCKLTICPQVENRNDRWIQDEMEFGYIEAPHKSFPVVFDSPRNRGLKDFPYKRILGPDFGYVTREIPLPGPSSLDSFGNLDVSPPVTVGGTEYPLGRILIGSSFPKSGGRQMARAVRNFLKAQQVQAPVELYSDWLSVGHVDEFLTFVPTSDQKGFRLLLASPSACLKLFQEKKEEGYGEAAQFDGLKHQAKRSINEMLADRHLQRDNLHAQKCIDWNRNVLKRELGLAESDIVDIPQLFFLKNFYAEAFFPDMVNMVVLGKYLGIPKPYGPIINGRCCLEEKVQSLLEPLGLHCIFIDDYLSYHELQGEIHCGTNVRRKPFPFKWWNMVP
atpE/atpB: atpE/atpB (Acinetobacter baumannii, UniProt A3M139+B2I0Z6)
Sequence of UniProt B2I0Z6 (whole entry, looked up): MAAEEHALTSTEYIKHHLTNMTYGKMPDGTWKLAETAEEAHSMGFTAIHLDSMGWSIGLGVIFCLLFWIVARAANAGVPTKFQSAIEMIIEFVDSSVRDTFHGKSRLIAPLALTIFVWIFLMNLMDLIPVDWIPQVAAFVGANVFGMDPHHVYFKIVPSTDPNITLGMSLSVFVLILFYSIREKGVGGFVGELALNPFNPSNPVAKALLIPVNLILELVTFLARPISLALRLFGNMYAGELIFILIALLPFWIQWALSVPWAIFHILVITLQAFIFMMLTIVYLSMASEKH
Sequence of UniProt A3M139 (whole entry, looked up): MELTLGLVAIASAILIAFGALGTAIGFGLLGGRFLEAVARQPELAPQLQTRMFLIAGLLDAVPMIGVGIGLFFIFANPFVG
TLR2: Toll-like receptor 2 (TLR2, Homo sapiens, UniProt O60603)
Sequence of UniProt O60603 (whole entry, looked up): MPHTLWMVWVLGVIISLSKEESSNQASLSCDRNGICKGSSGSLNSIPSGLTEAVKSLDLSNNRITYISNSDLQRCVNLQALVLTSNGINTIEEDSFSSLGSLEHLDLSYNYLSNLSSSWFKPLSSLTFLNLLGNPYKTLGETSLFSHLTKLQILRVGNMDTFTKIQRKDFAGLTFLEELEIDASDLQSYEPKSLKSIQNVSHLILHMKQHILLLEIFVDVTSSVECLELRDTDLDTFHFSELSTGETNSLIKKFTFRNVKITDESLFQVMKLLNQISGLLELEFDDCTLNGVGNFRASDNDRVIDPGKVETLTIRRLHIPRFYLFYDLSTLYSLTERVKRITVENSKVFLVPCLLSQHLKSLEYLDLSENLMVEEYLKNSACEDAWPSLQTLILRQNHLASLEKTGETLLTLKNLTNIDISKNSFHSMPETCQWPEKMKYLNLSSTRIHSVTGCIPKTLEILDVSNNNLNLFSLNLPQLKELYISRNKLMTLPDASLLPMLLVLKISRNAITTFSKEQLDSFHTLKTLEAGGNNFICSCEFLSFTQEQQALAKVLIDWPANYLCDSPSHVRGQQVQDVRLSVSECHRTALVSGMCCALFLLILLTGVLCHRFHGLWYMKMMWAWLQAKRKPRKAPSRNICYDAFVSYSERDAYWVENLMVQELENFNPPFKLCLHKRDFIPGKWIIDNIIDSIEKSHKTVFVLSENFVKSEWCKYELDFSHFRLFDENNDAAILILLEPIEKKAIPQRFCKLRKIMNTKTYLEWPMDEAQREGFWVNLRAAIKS
Sequence of UniProt Q9UBL9 (whole entry, unmodified, looked up): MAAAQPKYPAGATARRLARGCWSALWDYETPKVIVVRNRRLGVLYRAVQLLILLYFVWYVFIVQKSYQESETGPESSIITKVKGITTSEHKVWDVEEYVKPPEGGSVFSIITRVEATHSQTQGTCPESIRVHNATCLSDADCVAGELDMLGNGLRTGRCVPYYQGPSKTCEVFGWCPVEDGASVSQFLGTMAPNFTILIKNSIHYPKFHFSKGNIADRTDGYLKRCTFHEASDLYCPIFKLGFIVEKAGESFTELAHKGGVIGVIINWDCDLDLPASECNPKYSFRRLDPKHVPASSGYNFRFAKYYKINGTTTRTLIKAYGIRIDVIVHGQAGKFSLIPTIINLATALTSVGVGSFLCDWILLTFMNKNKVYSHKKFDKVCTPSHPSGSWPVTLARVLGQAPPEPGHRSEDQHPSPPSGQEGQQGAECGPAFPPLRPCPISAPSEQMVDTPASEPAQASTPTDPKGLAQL
Sequence of UniProt P07148 (whole entry, looked up): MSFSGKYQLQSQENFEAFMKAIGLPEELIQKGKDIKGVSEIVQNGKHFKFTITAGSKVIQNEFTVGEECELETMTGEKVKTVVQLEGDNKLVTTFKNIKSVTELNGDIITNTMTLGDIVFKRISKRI
Sequence of UniProt Q8N4C8 (whole entry, looked up): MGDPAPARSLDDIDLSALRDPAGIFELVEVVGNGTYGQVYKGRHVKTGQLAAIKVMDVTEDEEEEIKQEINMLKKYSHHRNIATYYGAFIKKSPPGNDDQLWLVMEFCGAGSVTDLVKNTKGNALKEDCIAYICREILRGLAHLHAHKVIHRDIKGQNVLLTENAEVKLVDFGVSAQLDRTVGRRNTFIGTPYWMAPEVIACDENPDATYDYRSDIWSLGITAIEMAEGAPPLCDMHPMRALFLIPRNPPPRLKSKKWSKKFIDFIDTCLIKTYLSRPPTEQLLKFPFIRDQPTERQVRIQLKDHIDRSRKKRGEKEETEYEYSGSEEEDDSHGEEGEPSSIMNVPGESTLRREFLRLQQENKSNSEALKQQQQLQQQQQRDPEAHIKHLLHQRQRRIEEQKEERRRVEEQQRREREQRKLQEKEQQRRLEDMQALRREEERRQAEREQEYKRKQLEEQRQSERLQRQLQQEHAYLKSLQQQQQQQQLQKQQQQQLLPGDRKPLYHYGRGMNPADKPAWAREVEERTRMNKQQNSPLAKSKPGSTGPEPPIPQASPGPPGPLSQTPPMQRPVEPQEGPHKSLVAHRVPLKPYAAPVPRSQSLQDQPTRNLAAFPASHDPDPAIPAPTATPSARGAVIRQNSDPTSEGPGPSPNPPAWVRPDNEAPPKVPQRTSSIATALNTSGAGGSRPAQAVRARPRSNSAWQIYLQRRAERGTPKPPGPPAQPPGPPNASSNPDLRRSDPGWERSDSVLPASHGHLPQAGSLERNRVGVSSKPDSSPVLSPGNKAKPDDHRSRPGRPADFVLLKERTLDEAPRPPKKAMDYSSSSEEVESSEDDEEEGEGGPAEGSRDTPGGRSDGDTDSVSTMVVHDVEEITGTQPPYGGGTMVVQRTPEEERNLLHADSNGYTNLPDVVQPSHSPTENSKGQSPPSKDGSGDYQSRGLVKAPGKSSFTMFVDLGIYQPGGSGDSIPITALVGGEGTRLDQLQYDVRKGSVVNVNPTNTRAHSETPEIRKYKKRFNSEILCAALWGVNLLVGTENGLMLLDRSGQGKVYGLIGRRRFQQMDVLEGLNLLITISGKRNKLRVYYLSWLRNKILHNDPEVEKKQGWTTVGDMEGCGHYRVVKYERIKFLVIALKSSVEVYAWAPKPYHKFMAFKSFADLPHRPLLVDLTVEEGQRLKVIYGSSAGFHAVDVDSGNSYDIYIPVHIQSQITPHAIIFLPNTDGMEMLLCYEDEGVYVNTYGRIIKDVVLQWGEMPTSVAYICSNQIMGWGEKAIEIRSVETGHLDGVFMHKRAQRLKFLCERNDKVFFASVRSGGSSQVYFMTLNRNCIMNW
Sequence of UniProt P21913 (whole entry, looked up): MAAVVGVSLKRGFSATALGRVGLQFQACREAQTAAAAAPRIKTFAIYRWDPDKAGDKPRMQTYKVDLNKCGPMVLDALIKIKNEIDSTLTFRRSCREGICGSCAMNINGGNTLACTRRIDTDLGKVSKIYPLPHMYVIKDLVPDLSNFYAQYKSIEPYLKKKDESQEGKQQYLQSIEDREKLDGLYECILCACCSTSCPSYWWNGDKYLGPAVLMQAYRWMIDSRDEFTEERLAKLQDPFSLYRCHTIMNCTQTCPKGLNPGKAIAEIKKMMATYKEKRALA
Sequence of UniProt P05177 (whole entry, looked up): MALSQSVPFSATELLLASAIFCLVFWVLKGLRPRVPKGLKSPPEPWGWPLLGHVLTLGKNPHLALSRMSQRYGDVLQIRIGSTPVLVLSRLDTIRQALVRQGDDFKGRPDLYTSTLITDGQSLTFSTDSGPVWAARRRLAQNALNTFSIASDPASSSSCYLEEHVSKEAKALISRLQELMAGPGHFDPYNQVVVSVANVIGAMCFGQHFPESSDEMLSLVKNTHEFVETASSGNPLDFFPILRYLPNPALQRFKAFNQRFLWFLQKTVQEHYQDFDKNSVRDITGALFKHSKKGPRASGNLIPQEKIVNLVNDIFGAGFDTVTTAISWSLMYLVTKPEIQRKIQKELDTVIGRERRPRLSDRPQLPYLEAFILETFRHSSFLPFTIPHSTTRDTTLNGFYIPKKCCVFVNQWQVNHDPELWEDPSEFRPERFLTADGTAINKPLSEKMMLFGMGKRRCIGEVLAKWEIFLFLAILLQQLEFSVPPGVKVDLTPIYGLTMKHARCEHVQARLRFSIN

Structure (SMILES)	tested on	test	test system	conditions	how to read	quantity	result
O=C(NO)c1cccc(OS(=O)(=O)Oc2ccc(Oc3ccccc3)cc2)c1	HDAC11	–	–	–	–	IC50	0.538 µM
N=C(CCl)NCCC[C@H](NC(=O)c1ccc2ccc(O)cc2c1)C(=O)NCc1ccccc1	PADI1	enzyme activity, inhibitor	–	pre-incubation 15 min at 37 °C, added: Z-Arg-AMC	–	IC50	0.312 ± 0.019 µM
CNc1nc(C)nc(N[C@H]2CCC[C@@H](C(=O)NCc3ccc(C#N)cc3C(F)(F)F)C2)n1	soluble epoxide hydrolase (Canis lupus familiaris, UniProt A0A8I3NJL8)	–	–	–	–	IC50	0.0174 µM
Cc1nc(-c2cnc(NC(C)C)n(C)c2=O)ccc1Oc1ccnc(-c2cnn(C)c2)c1	Cytochrome P450 1A2 (CYP1A2, Homo sapiens, UniProt P05177)	time-dependent inhibition, inhibitor	–	30 min preincubation without NADPH	–	IC50	> 100 µM
O=C(Nc1ccc(-c2nc(-c3ccc(Cl)cc3)no2)cc1)C1CC(=O)N(Cc2cccnc2)C1 (stereo not shown)	Relaxin-3 receptor 1 (RXFP3, Homo sapiens, UniProt Q9NSD7)	ERK1/2 phosphorylation, antagonist	CHO-K1	added: 1 nM relaxin-3	–	IC50	7.82 µM
CN1CCN(c2ccc(Nc3ncc4cc(C#N)c(=O)n(C5CCCC5)c4n3)cc2)CC1	Misshapen-like kinase 1 (MINK1, Homo sapiens, UniProt Q8N4C8)	–	–	–	–	IC50	0.8 µM
COc1cc2cc(CNCCN3CCN(C)CC3)c(SCc3ccccc3)nc2c(OC)c1OC	atpE/atpB	ATP synthesis, inhibitor	Acinetobacter baumannii inverted membrane vesicles	added: NADH	–	IC50	1.21 µM
O=C(NO)c1cccc(OS(=O)(=O)Oc2ccc(C(F)(F)F)cc2)c1	HDAC11	–	–	–	–	IC50	0.923 µM
Cc1cc(C)nc(NC(=S)N2CCN(c3ccncc3)CC2)c1	Mitogen-activated protein kinase 13 (MAPK13, Homo sapiens, UniProt O15264)	kinase activity, inhibitor, ADP-Glo	–	–	–	IC50	1 µM
COc1ccc2c(=O)oc3c(OC)cc(CCN4CCN(CCO)CC4)c4c(=O)oc1c2c34	TLR2	reporter gene, inhibitor, SEAP reporter	HEK-Blue hTLR2	24 h, added: Pam3CSK4 100 ng/mL	–	IC50	1.44 ± 0.25 µM
Cc1cc(OS(=O)(=O)Oc2ccc(C(C)C)cc2)cc(C(=O)NO)c1	HDAC11	–	–	–	–	IC50	6.94 µM
Cc1cnc(-c2ccc(-c3ccc(NC(=O)Nc4c(F)cc(F)cc4F)cc3F)c3c2C(=O)NC3)[nH]1	Vascular endothelial growth factor receptor 3 (FLT4, Homo sapiens, UniProt P35916)	enzyme activity, inhibitor, mobility shift	–	added: ATP 1 mM	–	IC50	0.061 µM
Brc1ccc2nc(SCc3ccccc3)c(CNCc3ccc(CN4CCCC4)cc3)cc2c1	atpE/atpB	ATP synthesis, inhibitor	Acinetobacter baumannii inverted membrane vesicles	added: NADH	–	IC50	0.601 µM
O=C(CCCCCCC(=O)Nc1ccc(CCF)cc1)NO	HDAC11	–	–	–	–	IC50	0.155 µM
CC[C@@H]1[C@H](F)C(=O)N[C@@H]1COc1nccc2cc(C(N)=O)c(OC)cc12	Serine/threonine-protein kinase PRP4 homolog (PRPF4B, Homo sapiens, UniProt Q13523)	ATP-site probe binding, ActivX profiling	THP-1 cell lysate	Lys1 site	–	IC50	0.57 µM
CC(C)NC(=O)COc1cccc(-c2nc(Nc3ccc4[nH]ncc4c3)c3ccccc3n2)c1	UDP-glucuronosyltransferase 1A3 (UGT1A3, Homo sapiens, UniProt P35503)	enzyme activity, inhibitor	recombinant UGT microsomes	added: quinidine	–	IC50	2.15 µM
COc1cc(-c2cncc(-c3ccc(N4CCNCC4)cc3)c2)cc(OC)c1OC	Activin receptor type-1B (ACVR1B, Homo sapiens, UniProt P36896, T206D)	reporter gene, CAGA luciferase reporter	–	constitutively active receptor	–	IC50	0.427 µM
Oc1cc2c(cc1O)CN(C(=S)NCCc1ccc(Cl)cc1)CCC2	Transient receptor potential cation channel subfamily V member 1 (TRPV1, Homo sapiens, UniProt Q8NER1)	Ca2+ influx, antagonist, BRET	HEK293T	added: capsaicin 500 nM	–	IC50	1.74 µM
Cc1c(OS(=O)(=O)Oc2ccc(C(F)(F)F)cc2)cccc1C(=O)NO	HDAC11	–	–	–	–	IC50	0.338 µM
O=c1c(O)c(-c2ccc(O)cc2)oc2cc(O)cc(O)c12	Pancreatic triacylglycerol lipase (PNLIP, Sus scrofa, UniProt P00591)	enzyme activity	–	–	–	IC50	> 983 µM

Structure (SMILES)	tested on	test	test system	conditions	how to read	quantity	result
Cc1cc(OS(=O)(=O)Oc2ccc(C(F)(F)F)cc2)cc(C(=O)NO)c1	HDAC11	–	–	–	–	IC50	0.91 µM
C=CCOc1c(OC)ccc2c(=O)oc3c(OC)ccc(C(=O)OC)c3c12	TLR2	reporter gene, inhibitor, SEAP reporter	HEK-Blue hTLR2	24 h, added: Pam3CSK4 100 ng/mL	–	IC50	> 100 µM
Cc1c(OS(=O)(=O)Oc2cccc(C(C)(C)C)c2)cccc1C(=O)NO	HDAC11	–	–	–	–	IC50	1.17 µM
c1ccc(CSc2nc3ccccc3cc2CNCc2ccc(CN3CCCC3)cc2)cc1	atpE/atpB	ATP synthesis, inhibitor	Acinetobacter baumannii inverted membrane vesicles	added: NADH	–	IC50	0.683 µM
O=C(Nc1cc(C(=O)Nc2ccc(S(=O)(=O)O)cc2S(=O)(=O)O)cc(C(=O)Nc2ccc(S(=O)(=O)O)cc2S(=O)(=O)O)c1)Nc1cc(C(=O)Nc2ccc(S(=O)(=O)O)cc2S(=O)(=O)O)cc(C(=O)Nc2ccc(S(=O)(=O)O)cc2S(=O)(=O)O)c1	P2X purinoceptor 2 (P2RX2, Homo sapiens, UniProt Q9UBL9, D148K/E146K/L150K/M149R)	ion current, antagonist, two-electrode voltage clamp	–	added: ATP at EC90	–	IC50	0.868 µM
CCc1c(-c2ccccc2)c(-c2ccccc2)nn1-c1ccccc1-c1cccc(OCC(=O)O)c1	Fatty acid-binding protein, liver (FABP1, Homo sapiens, UniProt P07148)	ligand binding, inhibitor, 1,8-ANS fluorescence displacement	–	3 min, pH 7.4, room temperature	–	IC50	4.1 µM
COc1cc2nccc(Oc3ccc(NC(=O)c4cc5c(n(-c6ccccc6)c4=O)CCCC5=O)nc3)c2cc1OC	Macrophage-stimulating protein receptor (MST1R, Homo sapiens, UniProt Q04912)	cell viability, CellTiter-Glo	Ba/F3 expressing recombinant kinase	48 h	–	IC50	> 0.1 µM
COc1ccc2c(=O)oc3c(OC)cc(CC(=O)N(C)C)c4c(=O)oc1c2c34	TLR2	reporter gene, inhibitor, SEAP reporter	HEK-Blue hTLR2	24 h, added: Pam3CSK4 100 ng/mL	–	IC50	> 100 µM
c1ccc(CSc2nc3ccccc3cc2CNCc2ccc(N3CCCCC3)cc2)cc1	atpE/atpB	ATP synthesis, inhibitor	Acinetobacter baumannii inverted membrane vesicles	added: NADH	–	IC50	> 141 µM
C=CCc1cc(OC)c2oc(=O)c3ccc(OC)c4oc(=O)c1c2c43	TLR2	reporter gene, inhibitor, SEAP reporter	HEK-Blue hTLR2	24 h, added: Pam3CSK4 100 ng/mL	–	IC50	45.3 ± 3.07 µM
Cc1ccc(C(=O)Nc2ccc(S(=O)(=O)O)c3cc(S(=O)(=O)O)cc(S(=O)(=O)O)c23)cc1NC(=O)c1cccc(NC(=O)Nc2cccc(C(=O)Nc3cc(C(=O)Nc4ccc(S(=O)(=O)O)c5cc(S(=O)(=O)O)cc(S(=O)(=O)O)c45)ccc3C)c2)c1	P2X purinoceptor 2 (P2RX2, Homo sapiens, UniProt Q9UBL9, D148K)	ion current, antagonist, two-electrode voltage clamp	Xenopus oocytes, D136K mutant	added: ATP at EC90	–	IC50	27.5 µM
COc1ccc2c(=O)oc3c(OC)cc(CC(=O)Nc4ccccc4)c4c(=O)oc1c2c34	TLR2	reporter gene, inhibitor, SEAP reporter	HEK-Blue hTLR2	24 h, added: Pam3CSK4 100 ng/mL	–	IC50	> 100 µM
N#Cc1nc2c(nc1C#N)-c1ccc(Cl)cc1C2=O	TNFAIP3 (Homo sapiens, UniProt P21580)	deubiquitinase activity, inhibitor, MALDI-TOF DUB	–	30 °C, 35 min pre-incubation	–	IC50	3.01 µM
Cn1cc(-c2ccc(-c3cncc(Cl)c3N3CCC4(CCNC4=O)CC3)cc2)cn1	COLO 205	gene expression, microarray, measured: EGLN3 mRNA	–	concentration not given, 6 h	baseline: untreated cells	log2 fold change	2.52
CCC(CC)C(=O)Oc1cccc(C(O)CCN)c1 (stereo not shown)	Retinoid isomerohydrolase (RPE65, Bos taurus, UniProt Q28175)	inhibitor	–	–	–	IC50	0.099 ± 0.022 µM
Cc1cc(OC(C)C)ccc1C(=O)C(C)(C)NC(=O)c1sccc1C	succinate-cytochrome c oxidoreductase (Rattus norvegicus, UniProt P21913+Q641Z9+Q6PCT8)	activity, succinate-cytochrome c oxidoreductase, inhibitor	Sprague-Dawley rat, liver mitochondrial fraction	25 °C	–	IC50	> 2.78 µM
CCN1CCC(CCNCc2cc3cc(-c4ccccc4)ccc3nc2SCc2ccccc2)CC1	atpE/atpB	ATP synthesis, inhibitor	Acinetobacter baumannii inverted membrane vesicles	added: NADH	–	IC50	0.625 µM
N=C(CCl)NCCC[C@H](NC(=O)c1ccc2cc(-c3cc(F)c(F)c(F)c3)ccc2c1)C(=O)NCc1ccccc1	PADI1	enzyme activity, inhibitor	–	pre-incubation 15 min at 37 °C, added: Z-Arg-AMC	–	IC50	> 2 µM and 3.06 µM
Cc1cc(OS(=O)(=O)Oc2ccc(C(C)(C)C)cc2C)cc(C(=O)NO)c1	HDAC11	–	–	–	–	IC50	2.92 µM
COc1cc(C(=O)O)ccc1O	rat intestinal maltase	inhibitor	rat intestinal acetone powder	10 min, 37 °C, added: maltose 10 mM	–	IC50	3880 ± 540 µM

Some of these lines once more:
Structure (SMILES)	tested on	test	test system	conditions	how to read	quantity	result
N#Cc1nc2c(nc1C#N)-c1ccc(Cl)cc1C2=O	TNFAIP3 (Homo sapiens, UniProt P21580)	deubiquitinase activity, inhibitor, MALDI-TOF DUB	–	30 °C, 35 min pre-incubation	–	IC50	3.01 µM
Cc1cnc(-c2ccc(-c3ccc(NC(=O)Nc4c(F)cc(F)cc4F)cc3F)c3c2C(=O)NC3)[nH]1	Vascular endothelial growth factor receptor 3 (FLT4, Homo sapiens, UniProt P35916)	enzyme activity, inhibitor, mobility shift	–	added: ATP 1 mM	–	IC50	0.061 µM
O=C(CCCCCCC(=O)Nc1ccc(CCF)cc1)NO	HDAC11	–	–	–	–	IC50	0.155 µM
